Experimental data pooled from the literature.
Each line is one published result; not all experiments were run side by side. “And” joins repeats or separate records; there may be more than shown. ± marks the error that the study gave. In brackets after ≈: the same amount, converted by molar mass.

| SMILES | test | test system | conditions | scale | endpoint | value |
| --- | --- | --- | --- | --- | --- | --- |
| CC(C)(O)c1cc(Nc2cc(Oc3cn(C4CC4)nc3C3CCOCC3)ccn2)ccn1 | Pyrexia | patients with advanced cancer, Japanese cohort | oral, dose not given, grade ≥3 |  | treatment-related adverse events | 0% |
| COc1ccc2nc3cc(Cl)ccc3c(Nc3cc(CN4CCCC4)c(O)c(CN4CCCC4)c3)c2n1 |  | mouse, blood | intraperitoneal, 57 mg/kg |  | haematocrit | 36.7% |
| CC(C)C[C@@H]1NC(=O)[C@H](CC(N)=O)NC(=O)[C@H](CCCNC(=N)N)NC(=O)[C@H]([C@@H](C)O)NC(=O)[C@@H]2CSSC[C@@H]3NC(=O)[C@H]([C@@H](C)O)NC(=O)CNC(=O)CNC(=O)[C@H](C(C)C)NC(=O)[C@@H]4CSSC[C@H](NC(=O)[C@H](CCCCN)NC(=O)[C@H](CSSC[C@H](NC(=O)[C@H](C(C)C)NC(=O)[C@@H]5CCCN5C(=O)[C@H](CC(C)C)NC1=O)C(=O)NCC(=O)N[C@@H](CCC(=O)O)C(=O)N[C@@H]([C@@H](C)O)C(=O)N4)NC(=O)CNC(=O)[C@@H]1CCCN1C(=O)[C@H]([C@@H](C)O)NC(=O)[C@H](CC(N)=O)NC3=O)C(=O)N[C@@H](CO)C(=O)N[C@@H](Cc1c[nH]c3ccccc13)C(=O)N1CCC[C@H]1C(=O)N[C@@H](C(C)C)C(=O)N2 | HPLC | water | 180 µM, 14 days, 37 °C, deamidation stability |  | remaining peptide | 97.8 ± 0.6% |
| C[C@@H](NC(=O)N1C(=O)[C@H](Cc2ccnc(N)c2)[C@H]1C(=O)O)C1CCCCC1 |  | healthy adult Chinese volunteers | continuous intravenous infusion, 2.25 mg/kg/h, 5-day infusion, CTCAE 5.0 grading |  | incidence of serious AEs | 0% |
| CN1CCN(c2ccc(Nc3nccc(-c4ccccc4)n3)cc2C(F)(F)F)CC1 |  | zebrafish embryos | 50 µM, 5 d |  | toxicity | 0% |
| Clc1ccc(-c2cc(Cl)c(Cl)c(Cl)c2Cl)cc1Cl |  | polyethylene-water partitioning | PCB compilation | baseline: maximum over minimum K | literature range factor | 9 |
| COc1cccc2c1CCCC2CCCN1CCN(C2CCCCC2)CC1 (centres unmarked) |  | CD-1 mouse, male, plasma | intraperitoneal, 1 mg/kg |  | elimination rate constant | 5.78e-05 s⁻¹ |
| CCOc1cc(Oc2ccc(C(F)(F)F)cc2Cl)ccc1[N+](=O)[O-] |  | rat, female | 500 mg/kg, 4 days |  | body weight gain | 25% |
| CCc1ccc(CC/C=C/c2ccc3c(c2)C(=O)CC3)cc1 |  | Sprague-Dawley rat, male | oral, 30 mg/kg/day, 14 days |  | Glucose | 5.14 mM |
| C=CC(=O)Nc1cc(Nc2nccc(Nc3cc(Cl)c(F)cc3C(C)(C)O)n2)c(OC)cc1N1CC[C@@H](N(C)C)C1 | measured: body weight | tumour-bearing mice | all doses tested |  | tolerability | not toxic |
| CC(C)CC(=O)OC[C@H]1O[C@@](C#N)(c2ccc3c(N)ncnn23)[C@H](O)[C@@H]1O | plasma protein binding | rat plasma | 90 µM |  | unbound fraction | 0.107 |
| CN[C@@H](C)C(=O)N[C@H]1CN(S(=O)(=O)c2cccc(S(=O)(=O)N3CC[C@H]4CC[C@@H](C(=O)NC(c5ccccc5)c5ccccc5)N4C(=O)[C@@H](NC(=O)[C@H](C)NC)C3)c2)CC[C@H]2CC[C@@H](C(=O)NC(c3ccccc3)c3ccccc3)N2C1=O |  | patients advanced solid tumours | dose not given, all grades all doses |  | any treatment-related adverse event | 21.4% |
| COc1cc2c(Oc3ccc4[nH]c(C)cc4c3F)ccnc2cc1OCC1(N)CC1 |  | paediatric refractory sarcoma patients | 8 mg |  | blurred vision incidence | 0% |
| CC(C)C[C@@H]1NC(=O)CNC(=O)[C@H](CC(N)=O)NC(=O)[C@H](CCCNC(=N)N)NC(=O)[C@H]([C@@H](C)O)NC(=O)[C@@H]2CSSC[C@@H]3NC(=O)[C@H]([C@@H](C)O)NC(=O)CNC(=O)CNC(=O)[C@H](C(C)C)NC(=O)[C@@H]4CSSC[C@H](NC(=O)[C@H]([C@@H](C)O)NC(=O)[C@H](CSSC[C@H](NC(=O)[C@H](C(C)C)NC(=O)[C@@H]5CCCN5C1=O)C(=O)NCC(=O)N[C@@H](CCCCN)C(=O)N[C@@H]([C@@H](C)O)C(=O)N4)NC(=O)CNC(=O)[C@@H]1CCCN1C(=O)[C@H]([C@@H](C)O)NC(=O)[C@H](CC(N)=O)NC3=O)C(=O)N[C@@H](CO)C(=O)N[C@@H](Cc1c[nH]c3ccccc13)C(=O)N1CCC[C@H]1C(=O)N[C@@H](C(C)C)C(=O)N2 | HPLC | ammonium bicarbonate | 180 µM, 7 days, pH 9.0, 25 °C, deamidation stability |  | remaining peptide | 81.3 ± 1.4% |
| CCN(CCO)CCCC(C)Nc1ccnc2cc(Cl)ccc12 (centres unmarked) | measured: Nausea grade 2 | newly diagnosed glioblastoma patients | oral, 400 mg/dose, with radiotherapy and temozolomide |  | patients with adverse event | 33% |
| CC1=C(O)C(=O)C=C2C1=CC=C1[C@@]2(C)CC[C@@]2(C)[C@@H]3C[C@](C)(C(=O)O)CC[C@]3(C)CC[C@]12C |  | Sprague-Dawley rat pups, multiple-hit infantile spasms model | i.p., 2 mg/kg, PN3 to PN5, CELA-2 arm |  | body weight gain rate | 0.74 g/day |

| SMILES | test | test system | conditions | scale | endpoint | value |
| --- | --- | --- | --- | --- | --- | --- |
| [O-][S+]1CCc2nc(N3CCC(c4ncc(Cl)cn4)CC3)nc(NC3(CO)CCC3)c21 (centres unmarked) | measured: Dizziness | healthy male humans | 48 mg single dose |  | adverse event incidence | 0% |
| C[C@@H]1NC(=O)[C@H](CCCCNC(=O)CO/N=C/C(=O)NCCCC[C@@H]2NC(=O)[C@@H](Cc3ccccc3)NC(=O)[C@H](CC(=O)O)NC(=O)CNC(=O)[C@H](CCCNC(=N)N)NC2=O)NC(=O)CNC(=O)[C@@H]2CCCN2C(=O)[C@H](CCCCNC(=O)CO/N=C/C(=O)NCCCC[C@@H]2NC(=O)[C@@H](Cc3ccccc3)NC(=O)[C@H](CC(=O)O)NC(=O)CNC(=O)[C@H](CCCNC(=N)N)NC2=O)NC(=O)[C@H](CCCCNC(=O)[C@H](CCCCN)NC(=O)[C@H](Cc2ccccc2)NC(=O)CNC(=O)CN2CCCNCCNCCCNCC2)NC(=O)[C@H](CCCCNC(=O)CO/N=C/C(=O)NCCCC[C@@H]2NC(=O)[C@@H](Cc3ccccc3)NC(=O)[C@H](CC(=O)O)NC(=O)CNC(=O)[C@H](CCCNC(=N)N)NC2=O)NC(=O)CNC(=O)[C@@H]2CCCN2C(=O)[C@H](CCCCNC(=O)CO/N=C/C(=O)NCCCC[C@@H]2NC(=O)[C@@H](Cc3ccccc3)NC(=O)[C@H](CC(=O)O)NC(=O)CNC(=O)[C@H](CCCNC(=N)N)NC2=O)NC1=O [copper-64 labelled] |  | normal mice, blood | intravenous, 0.74 MBq, 24 h post-injection |  | tissue uptake | 0.13 ± 0.01 %ID/g |
| O.O.O.O.O.O.[Cl-].[Cl-].[Co+2] |  | Crl:CD(SD) rat male, blood | oral, 2.48 mg Co/kg/day, 90 days | baseline: red blood cells | reticulocytes | 10.8% |
| Cn1cncc1-c1c(F)cncc1NC(=O)c1c(N)nn2cc(F)cnc12 |  | human patients | oral, 220 mg once daily |  | grade ≥3 lymphocyte decrease incidence | 67% |
| COc1cc(Nc2ncc(F)c(Nc3ccc4c(n3)NC(=O)C(C)(C)O4)n2)cc(OC)c1OC |  | PBS | 24 h, pH 7.4, 1% DMSO |  | solubility | 1.3 µM (≈ 0.612 µg/mL) |
| CO[C@H]1C[C@@H]2CC[C@@H](C)[C@@](O)(O2)C(=O)C(=O)N2CCCC[C@H]2C(=O)O[C@H]([C@H](C)C[C@@H]2CC[C@@H](OC(=O)NCCOCCOCCOCCOCCOCCOCCOCCOCCC(=O)N3CCc4cc(Cn5nc(-c6ccc7oc(N)nc7c6)c6c(N)ncnc65)ccc4C3)[C@H](OC)C2)C[C@@H](O)[C@H](C)/C=C(\C)[C@@H](O)[C@@H](OC)C(=O)[C@H](C)C[C@H](C)/C=C/C=C/C=C/1C |  | patients with advanced solid tumours | intravenous, dose not given, grade ≥3 |  | Fatigue AE leading to dose reduction | 0% |
| CC1(C)C(/C=C(\Cl)C(F)(F)F)C1C(=O)OC(C#N)c1cccc(Oc2ccccc2)c1 (centres unmarked) | measured: CYP2C8 | human, age 1 year |  |  | enzyme contribution to clearance | 0.09% |
| CC/C(=C(\c1ccccc1)c1ccc(OCCN(C)C)cc1)c1ccccc1 |  | CD-1 mouse, male, plasma | intraperitoneal, 1 mg/kg |  | elimination rate constant | 1.03e-05 s⁻¹ |
| O=C(Nc1ccccc1)C1CCN(C(=O)Oc2cccnc2)CC1 | Bond-Lader VAS | healthy women | 100 mg | baseline: pre-dose baseline, direction not given | change in Strong-feeble score | -9.9 |
| CC(=O)c1c(C)c2cnc(Nc3ccc(C4CCN(CCS(C)(=O)=O)CC4)cn3)nc2n(C2CCCC2)c1=O |  | HR+/HER2- advanced breast cancer patients | oral, 200 mg |  | patients with serious AE | 0% |
| O=S(=O)(Nc1ccccc1)c1ccc(NC(=S)Nc2ccccc2)cc1 | measured: CK | female mouse, blood | oral, 80 mg/kg daily, 14 days |  | serum enzyme activity | 3230 U/L |
| CC(C)NCCCC[C@@H]1NC(=O)[C@H](Cc2ccc(O)cc2)NC(=O)[C@H](Cc2ccccc2)NC(=O)CC[C@H](C(=O)N[C@@H](CCCCNC(C)C)C(=O)N[C@@H](CCCCNC(=O)[C@H](CCC(=O)O)NC(=O)[C@H](CCC(=O)O)NC(=O)[C@H](CCC(=O)O)NC(=O)CN2CCN(CC(=O)O)CCN(CC(=O)O)CC2)C(N)=O)NC(=O)CNC(=O)[C@H](Cc2ccc3ccccc3c2)NC(=O)[C@@H](CCCNC(=N)N)NC1=O [fluorine-18 labelled] |  | rhesus macaque, urine | 180 min post-injection |  | parent fraction | 57.6% |
| C[C@]1(CO)Cc2ncn(-c3ccc(C#N)c(Cl)c3)c2C(=O)O1 |  | human | 3 mg multiple doses, fasted |  | subjects with drug-related somnolence | 0% |
| COc1ncccc1-c1cnn2ccc(N3CCN(C(=O)OC(C)C)CC3)nc12 |  | rat, STZ model, plasma | oral, 10 mg/kg, 240 min |  | free drug concentration | 81 nM |
| CN1CCN(c2ccc(Nc3nccc(-c4ccc(Cl)cc4)n3)cc2C(F)(F)F)CC1 |  | Danio rerio embryos | 5 µM, 5 d |  | toxicity | 100% |
| N.N.[Cl][Pt][Cl] |  | mouse xenograft model | dose not given, day 8 |  | body weight | 24 g and 21 g and 19 g and 20 g and 17 g |

Some of these lines once more:
| SMILES | test | test system | conditions | scale | endpoint | value |
| --- | --- | --- | --- | --- | --- | --- |
| CCc1ccc(CC/C=C/c2ccc3c(c2)C(=O)CC3)cc1 |  | Sprague-Dawley rat, male | oral, 30 mg/kg/day, 14 days |  | Glucose | 5.14 mM |
| CN1CCN(c2ccc(Nc3nccc(-c4ccccc4)n3)cc2C(F)(F)F)CC1 |  | zebrafish embryos | 50 µM, 5 d |  | toxicity | 0% |
| O=C(Nc1ccccc1)C1CCN(C(=O)Oc2cccnc2)CC1 | Bond-Lader VAS | healthy women | 100 mg | baseline: pre-dose baseline, direction not given | change in Strong-feeble score | -9.9 |
